{"data": "Results of several laboratories", "note": "A part holds a random share of what one study measured. “And” joins repeats or separate records; there may be more than shown."}
{"data": "Series 1", "target": "Histone acetyltransferase KAT6A, both winged helices, GST fusion (KAT6A, Homo sapiens, UniProt Q92794, residues 1-181)", "technique": "protein binding microarray", "form": "double-stranded DNA, one strand shown", "matrix": "in vitro", "concentration": "not given", "notes": "8-mer, flanks averaged, mean of 2 arrays, mostly near background", "reference": "not given", "reading": "higher = stronger binding", "Construct (chain)": "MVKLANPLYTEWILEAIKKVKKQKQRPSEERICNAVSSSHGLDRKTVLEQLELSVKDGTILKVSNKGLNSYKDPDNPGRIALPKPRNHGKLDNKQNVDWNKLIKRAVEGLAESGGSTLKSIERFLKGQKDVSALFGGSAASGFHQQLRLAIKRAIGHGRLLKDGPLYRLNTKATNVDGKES"}
{"Strand": "GAAAACGA", "E-score": -0.0154}
{"Strand": "ACGGATTC", "E-score": 0.143}
{"Strand": "CGTTTCCC", "E-score": 0.0863}
{"Strand": "AGCACGAT", "E-score": -0.178}
{"Strand": "GACGTATA", "E-score": -0.0194}
{"Strand": "AGTGCTGA", "E-score": -0.142}
{"Strand": "CGTAAGAG", "E-score": -0.0118}
{"Strand": "CTGATCTA", "E-score": -0.00115}
{"data": "Series 2", "target": "Transcriptional repressor CTCF (CTCF, Homo sapiens, UniProt P49711, residues 1-727, full length assumed)", "technique": "protein-binding microarray", "form": "double-stranded DNA, one strand shown", "matrix": "in vitro", "concentration": "not given", "notes": "k-mer, scored over probes, only values ≥0.25", "reading": "higher = stronger binding", "chain of UniProt P49711 (whole entry, looked up)": "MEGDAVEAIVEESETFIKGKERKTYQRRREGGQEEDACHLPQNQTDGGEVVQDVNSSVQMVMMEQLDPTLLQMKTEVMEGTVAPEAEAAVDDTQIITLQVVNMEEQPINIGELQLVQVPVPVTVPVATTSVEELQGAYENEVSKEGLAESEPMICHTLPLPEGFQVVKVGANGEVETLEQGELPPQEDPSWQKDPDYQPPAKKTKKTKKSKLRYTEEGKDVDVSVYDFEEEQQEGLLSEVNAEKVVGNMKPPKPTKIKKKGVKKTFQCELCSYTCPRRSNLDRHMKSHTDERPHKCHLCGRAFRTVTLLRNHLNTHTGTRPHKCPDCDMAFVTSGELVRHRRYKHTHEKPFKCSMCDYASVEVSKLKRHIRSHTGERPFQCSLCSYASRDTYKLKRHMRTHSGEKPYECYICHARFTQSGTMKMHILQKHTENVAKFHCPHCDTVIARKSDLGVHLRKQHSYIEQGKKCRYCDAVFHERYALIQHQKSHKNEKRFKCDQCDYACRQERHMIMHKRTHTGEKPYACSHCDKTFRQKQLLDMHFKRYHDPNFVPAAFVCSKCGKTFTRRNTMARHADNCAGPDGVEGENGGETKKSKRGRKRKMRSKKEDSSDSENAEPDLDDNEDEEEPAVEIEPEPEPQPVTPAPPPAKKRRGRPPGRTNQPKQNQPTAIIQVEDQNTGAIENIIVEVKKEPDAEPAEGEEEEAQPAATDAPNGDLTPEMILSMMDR"}
{"Strand": "AAAATAGG", "E-score": 0.267}
{"Strand": "AAACATGT", "E-score": 0.294}
{"Strand": "GACATATA", "E-score": 0.273}
{"Strand": "GCAAAACA", "E-score": 0.253}
{"Strand": "ATAATTAA", "E-score": 0.308}
{"Strand": "AAAACAAG", "E-score": 0.256}
{"Strand": "ATAACAAC", "E-score": 0.267}
{"data": "Series 3", "target": "Interferon regulatory factor 7, full length, phosphomimetic (IRF7, Homo sapiens, UniProt Q92985, residues 1-503, S101K/S471D/S472D/S475D/S476D/S477D/S483D/S484D/S487D)", "technique": "protein-binding microarray", "form": "double-stranded DNA, one strand shown", "matrix": "in vitro", "concentration": "250 nM", "notes": "60-bp whole probe", "together with": "salmon DNA 0.4 mg/ml", "reference": "random background probes", "reading": "higher = stronger binding", "constant ends, left off below": "GCCTAGCAC … GTCTTGATTCGCTTGACGCTGCTG", "Target sequence (chain)": "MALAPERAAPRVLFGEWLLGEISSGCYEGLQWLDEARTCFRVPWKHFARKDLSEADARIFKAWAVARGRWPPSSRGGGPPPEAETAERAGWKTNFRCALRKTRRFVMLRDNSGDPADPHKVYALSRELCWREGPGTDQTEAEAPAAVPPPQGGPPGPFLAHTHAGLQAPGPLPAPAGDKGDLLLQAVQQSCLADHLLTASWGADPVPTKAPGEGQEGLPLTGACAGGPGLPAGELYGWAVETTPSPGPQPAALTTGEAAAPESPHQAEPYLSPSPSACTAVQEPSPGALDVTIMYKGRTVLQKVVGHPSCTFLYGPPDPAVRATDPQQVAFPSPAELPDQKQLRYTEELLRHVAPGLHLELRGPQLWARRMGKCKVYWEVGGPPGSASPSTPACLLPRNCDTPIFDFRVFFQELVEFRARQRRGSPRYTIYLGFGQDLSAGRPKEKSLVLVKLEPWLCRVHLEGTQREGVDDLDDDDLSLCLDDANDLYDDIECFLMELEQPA"}
{"Strand": "TTTATTTTTTTTATTTATAAGTGCTAG", "log fluorescence": "1.21 z-score"}
{"Strand": "TAAGGTCTCCTTTTCCTTTAGTGCTAG", "log fluorescence": "2.17 z-score"}
{"Strand": "TTAGGTCTCGGTCTCGGTTTGTGCTAG", "log fluorescence": "5.41 z-score"}
{"Strand": "TTATATATCAGTATCGATTAGTGCTAG", "log fluorescence": "1.26 z-score"}
{"Strand": "TTAGGTAGCGGGTTTCGGTTAGTGCTA", "log fluorescence": "5.12 z-score"}
{"Strand": "TTAGGTTTCGACTCTCGGTTAGTGCTA", "log fluorescence": "10.3 z-score"}
{"Strand": "GACGGTTTCGGGTAACGGGACGTGCTA", "log fluorescence": "7.95 z-score"}
{"Strand": "TTAGGTTTCGGGTTTCGGTTAGTGCTA", "log fluorescence": "12.7 z-score"}
{"data": "Single results of other studies"}
{"Substance": "PhoQ, residues 284 288 289 292 302 303 AAQSYM", "target": "PhoP, residues 12 14 15 18 19 LWHSL (Escherichia coli, UniProt P23836)", "assay": "Sort-seq, refers to: YFP reporter", "system": "E. coli", "setting": "PhoQ-PhoP variant library, together with: 10 µM Mg2+", "how to read": "reference: high Mg2+ state, higher = stronger signaling", "endpoint": "fold induction", "value": "19.7 and 10.5"}
